{"sequences": {"note": "Amino acid sequences for entries named in this document (tags omitted). Residues count along the entry.", "UniProt P41146, whole entry": "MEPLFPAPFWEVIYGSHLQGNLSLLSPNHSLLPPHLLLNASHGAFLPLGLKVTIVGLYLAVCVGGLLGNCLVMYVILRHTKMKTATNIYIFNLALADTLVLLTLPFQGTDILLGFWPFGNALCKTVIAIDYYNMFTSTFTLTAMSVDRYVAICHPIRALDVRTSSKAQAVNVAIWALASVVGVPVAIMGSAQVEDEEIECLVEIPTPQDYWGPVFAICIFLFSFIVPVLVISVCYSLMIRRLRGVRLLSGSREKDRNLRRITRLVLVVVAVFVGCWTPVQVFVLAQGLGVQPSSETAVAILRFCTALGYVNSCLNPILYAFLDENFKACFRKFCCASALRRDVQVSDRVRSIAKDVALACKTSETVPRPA", "UniProt P49582, 23-502 limits assumed": "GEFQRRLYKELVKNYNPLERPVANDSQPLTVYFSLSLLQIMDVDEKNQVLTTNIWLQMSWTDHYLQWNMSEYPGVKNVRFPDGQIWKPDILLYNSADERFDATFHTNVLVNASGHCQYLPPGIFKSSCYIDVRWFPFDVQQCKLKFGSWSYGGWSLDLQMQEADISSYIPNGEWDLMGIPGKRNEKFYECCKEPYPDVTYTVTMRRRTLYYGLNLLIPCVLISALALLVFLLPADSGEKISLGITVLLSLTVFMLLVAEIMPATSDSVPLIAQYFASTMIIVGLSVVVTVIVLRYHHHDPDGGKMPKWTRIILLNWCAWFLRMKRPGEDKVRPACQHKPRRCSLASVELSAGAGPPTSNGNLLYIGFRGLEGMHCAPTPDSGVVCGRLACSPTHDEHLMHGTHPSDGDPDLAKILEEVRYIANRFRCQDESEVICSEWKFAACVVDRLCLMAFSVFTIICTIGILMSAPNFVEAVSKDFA", "UniProt P02769, 25-607 limits assumed": "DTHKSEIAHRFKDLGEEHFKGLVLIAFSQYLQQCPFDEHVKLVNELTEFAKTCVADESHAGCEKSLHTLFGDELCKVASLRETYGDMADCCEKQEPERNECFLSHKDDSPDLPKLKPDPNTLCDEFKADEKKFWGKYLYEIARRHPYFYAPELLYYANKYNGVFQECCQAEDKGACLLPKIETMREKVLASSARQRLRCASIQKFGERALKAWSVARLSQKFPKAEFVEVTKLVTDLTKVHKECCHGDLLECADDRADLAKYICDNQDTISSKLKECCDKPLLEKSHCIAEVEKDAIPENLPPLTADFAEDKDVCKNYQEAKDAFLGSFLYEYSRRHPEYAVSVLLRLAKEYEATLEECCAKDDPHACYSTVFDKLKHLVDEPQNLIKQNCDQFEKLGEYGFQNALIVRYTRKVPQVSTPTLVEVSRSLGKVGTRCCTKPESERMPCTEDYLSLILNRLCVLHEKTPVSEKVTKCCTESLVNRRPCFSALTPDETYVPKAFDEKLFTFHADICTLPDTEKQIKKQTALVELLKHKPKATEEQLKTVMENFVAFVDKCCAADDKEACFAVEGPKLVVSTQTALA"}, "data": "Measurements from different studies", "OPRL1": "Nociceptin receptor (OPRL1, Homo sapiens, UniProt P41146)", "note": "Lines come from different studies, so protocols differ. “And” joins repeats or separate records; there may be more than shown. ± marks the error that the study gave."}
{"Substance": "Cc1cc(N)c2ccccc2[n+]1CCCCCCCCCC[n+]1c(C)cc(N)c2ccccc21", "tested on": "HEK293-RFP", "assay": "cell viability", "quantity": "CC50", "value": "15.3 µM"}
{"Substance": "C[C@H](NP(=O)(Nc1ccn([C@H]2CS[C@@H](CO)O2)c(=O)n1)N[C@@H](C)C(=O)OCc1ccccc1)C(=O)OCc1ccccc1", "tested on": "HeLa", "assay": "cell proliferation", "setting": "3 d", "quantity": "IC50", "value": "≥ 250 µM"}
{"Substance": "O=[As]c1ccccc1 (stereo not drawn)", "tested on": "CHO", "assay": "cell detachment", "quantity": "lowest concentration causing detachment", "value": "> 100 µM"}
{"Substance": "O=C1Cc2ccccc2N1C1CCN([C@H]2CC[C@@H]3CCCc4cccc2c43)CC1 (relative stereo)", "tested on": "OPRL1", "assay": "radioligand displacement", "setting": "with: [3H]N/OFQ", "quantity": "Ki", "value": "0.0021 ± 0.00014 µM"}
{"Substance": "Pillar[6]MaxQ", "tested on": "HEK293", "assay": "cell viability, MTS", "setting": "24 h", "quantity": "maximum tolerated concentration", "value": "≤ 0.03 mM"}
{"Substance": "CCC1C(=O)N(C2CCN(CCCc3ccccc3)CC2)c2ccccc21 (stereo not drawn)", "tested on": "OPRL1", "assay": "radioligand displacement", "setting": "with: [3H]N/OFQ", "quantity": "Ki", "value": "0.189 ± 0.043 µM"}
{"Substance": "CCOP(=S)(OCC)Oc1nc(Cl)c(Cl)cc1Cl", "test system": "male ES1+/+ mice", "setting": "transdermal, 100 mg/kg", "quantity": "time to first toxic signs", "value": "6 h"}
{"Substance": "CC(C)C[C@H](NC(=O)[C@@H]1C[C@@H](O)CN1C(=O)[C@H](Cc1ccccc1)NC(=O)[C@H](CO)NC(=O)[C@H](C)NC(=O)[C@H](Cc1ccccc1)NC(=O)[C@@H](NC(=O)[C@H](CCC(=O)O)NC(=O)[C@H](Cc1c[nH]cn1)NC(=O)[C@@H](NC(=O)[C@@H](NC(=O)[C@H](CCC(N)=O)NC(=O)[C@H](C)NC(=O)[C@@H](N)CC(=O)O)[C@@H](C)O)C(C)C)C(C)C)C(=O)N[C@@H](CC(=O)O)C(=O)N[C@@H](CO)C(=O)N[C@@H](CC(=O)O)C(=O)NCC(=O)N[C@H]1CSSC[C@@H](C(N)=O)NC(=O)[C@H](Cc2ccc(O)cc2)NC(=O)[C@H](Cc2c[nH]cn2)NC(=O)[C@H](CCCCN)NC(=O)CNC(=O)[C@@H]2CSSC[C@H](NC1=O)C(=O)N[C@@H](Cc1c[nH]c3ccccc13)C(=O)N[C@@H](CC(N)=O)C(=O)N1CCC[C@H]1C(=O)N[C@@H](C)C(=O)N2", "test system": "adult wild-type zebrafish", "setting": "intraperitoneal", "quantity": "LD50", "value": "0.118 nmol/g"}
{"Substance": "O=S1(=O)c2ccc(F)cc2-c2ccc(N3CCN4CCC3CC4)cc21 [fluorine-18 labelled]", "tested on": "Neuronal acetylcholine receptor subunit alpha-7 (Chrna7, Mus musculus, UniProt P49582)", "test system": "mouse, hippocampus", "setting": "dose not given, 90 min, unit not given", "how to read": "baseline: cerebellum", "quantity": "binding potential BPND", "value": "3.1 ± 0.7"}
{"Substance": "C[C@H](NP(=O)(Nc1ccn([C@H]2CS[C@@H](COP(=O)(N[C@@H](C)C(=O)OCc3ccccc3)N[C@@H](C)C(=O)OCc3ccccc3)O2)c(=O)n1)N[C@@H](C)C(=O)OCc1ccccc1)C(=O)OCc1ccccc1", "tested on": "HeLa TK-deficient", "assay": "cell proliferation", "setting": "3 d", "quantity": "IC50", "value": "> 250 µM"}
{"Substance": "CCCSc1nc(N[C@@H]2C[C@H]2c2ccc(F)c(F)c2)c2nnn([C@@H]3C[C@H](OCCO)[C@@H](O)[C@H]3O)c2n1", "test system": "STEMI patients, plasma", "setting": "180 mg loading dose, 6 h, median, with: fentanyl", "quantity": "AUC(0-6 h)", "value": "1390 ng·h/mL"}
{"Substance": "C[C@@H]1NC(=O)[C@@H]2CCCN2C(=O)[C@H](CC(N)=O)NC(=O)[C@H](Cc2c[nH]c3ccccc23)NC(=O)[C@@H]2CSSC[C@H](NC1=O)C(=O)NCC(=O)N[C@@H](CCCCN)C(=O)N[C@@H](Cc1c[nH]cn1)C(=O)N[C@@H](Cc1ccc(O)cc1)C(=O)N[C@H](C(N)=O)CSSC[C@H](NC(=O)CN)C(=O)N2", "assay": "RP-HPLC", "test system": "mouse serum 25%", "setting": "50 µM, 6 h, 37 °C", "quantity": "remaining peptide", "value": "61.2 ± 0.66%"}
{"Substance": "O=C(c1ccc(F)cc1F)N1CCN(c2ccc3nncn3n2)CC1", "tested on": "Albumin (ALB, Bos taurus, UniProt P02769)", "assay": "binding, fluorescence quenching", "setting": "pH 7.4", "quantity": "IC50", "value": "> 100 µM"}
{"Substance": "CSCC[C@@H]1NC(=O)[C@H](CC(C)C)NC(=O)[C@H](CCCNC(=N)N)NC(=O)[C@H](CO)NC(=O)[C@@H]2CSSC[C@@H]3NC(=O)[C@H](CO)NC(=O)CNC(=O)[C@H]([C@@H](C)O)NC(=O)[C@H](CSSC[C@H](N)C(=O)N[C@@H](CCCCN)C(=O)NCC(=O)N[C@@H](CCCCN)C(=O)NCC(=O)N[C@@H](C)C(=O)N[C@@H](CCCCN)C(=O)N2)NC(=O)[C@H](CSSC[C@@H](C(N)=O)NC(=O)[C@H](CCCCN)NC(=O)CNC(=O)[C@H](CO)NC(=O)[C@H](CCCNC(=N)N)NC3=O)NC(=O)[C@H](CC(=O)O)NC(=O)[C@H](Cc2ccc(O)cc2)NC1=O", "tested on": "human erythrocytes", "assay": "haemolysis", "setting": "1 h, 37 °C, 50% haemolysis", "quantity": "HD50", "value": "4.2 mM and 4.23 mM"}
{"Substance": "CCOP(=S)(OCC)Oc1ccc([N+](=O)[O-])cc1", "test system": "male ES1+/+ mice", "setting": "subcutaneous, 12.5 mg/kg, 6 h", "how to read": "baseline: baseline", "quantity": "surface body temperature drop", "value": "2 °C"}
{"Substance": "CN(CC#CCOC(=O)Nc1cccc(Cl)c1)CCBr", "test system": "solution", "setting": "time not given", "how to read": "baseline: starting concentration", "quantity": "remaining parent mustard", "value": "30%"}
{"Substance": "CNC(=O)Oc1cccc2c1OC(C)(C)C2", "test system": "male ES1−/− mice", "setting": "subcutaneous, 1 mg/kg", "quantity": "duration of hypothermia", "value": "1 h"}
{"Substance": "NC12CC3CC(CC(C3)C1)C2", "tested on": "Influenza A virus", "assay": "viral replication", "test system": "MDCK, A/Swine/Iowa/11-0909/2010", "quantity": "EC50", "value": "< 1 µM"}
{"note": "A few entries again:"}
{"Substance": "CNC(=O)Oc1cccc2c1OC(C)(C)C2", "test system": "male ES1−/− mice", "setting": "subcutaneous, 1 mg/kg", "quantity": "duration of hypothermia", "value": "1 h"}
